Published values collected from several papers.
Each numbered part is a random draw from the data of one study; scales do not carry over between parts.

Set 1
Target: Sal-like protein 4, full length isoform A (SALL4, Homo sapiens, UniProt Q9UJQ4, residues 1-1053)
Sequence of UniProt Q9UJQ4 (whole entry, looked up): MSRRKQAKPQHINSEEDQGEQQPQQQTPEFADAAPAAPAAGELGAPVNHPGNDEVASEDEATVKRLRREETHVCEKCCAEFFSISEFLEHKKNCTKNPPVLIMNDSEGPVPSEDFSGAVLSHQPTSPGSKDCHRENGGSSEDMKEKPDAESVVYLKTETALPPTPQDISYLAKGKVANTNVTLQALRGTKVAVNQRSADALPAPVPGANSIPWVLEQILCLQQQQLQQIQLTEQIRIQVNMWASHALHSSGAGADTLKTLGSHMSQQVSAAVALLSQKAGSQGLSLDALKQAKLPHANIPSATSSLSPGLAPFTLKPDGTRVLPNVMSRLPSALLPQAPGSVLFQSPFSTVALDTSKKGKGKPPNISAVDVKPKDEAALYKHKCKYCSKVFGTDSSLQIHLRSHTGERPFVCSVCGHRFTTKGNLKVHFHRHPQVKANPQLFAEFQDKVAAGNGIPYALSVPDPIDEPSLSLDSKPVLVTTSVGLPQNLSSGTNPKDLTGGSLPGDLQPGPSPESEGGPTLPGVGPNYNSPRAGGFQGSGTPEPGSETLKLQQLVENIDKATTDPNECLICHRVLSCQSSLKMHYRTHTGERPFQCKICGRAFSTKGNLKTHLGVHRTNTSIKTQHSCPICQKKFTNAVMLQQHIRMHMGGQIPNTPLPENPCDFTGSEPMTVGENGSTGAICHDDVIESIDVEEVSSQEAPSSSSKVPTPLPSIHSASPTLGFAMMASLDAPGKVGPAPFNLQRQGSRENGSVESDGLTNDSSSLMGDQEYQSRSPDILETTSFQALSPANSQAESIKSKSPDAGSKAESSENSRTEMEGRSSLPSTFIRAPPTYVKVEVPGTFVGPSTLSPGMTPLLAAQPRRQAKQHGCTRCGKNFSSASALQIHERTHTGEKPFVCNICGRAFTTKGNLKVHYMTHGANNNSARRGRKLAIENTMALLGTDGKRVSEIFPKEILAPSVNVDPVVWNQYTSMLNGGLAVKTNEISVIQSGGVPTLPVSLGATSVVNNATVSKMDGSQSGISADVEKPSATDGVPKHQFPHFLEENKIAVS
Method: universal PBM
Molecule type: double-stranded DNA, one strand shown
Matrix: in vitro
Tested at: 600 nM
Notes: 8-mer, flanks averaged, mean of replicates
Direction: higher = stronger binding
`AGGGACTC` has an E-score of -0.209.
`CCCTCGTA` has an E-score of -0.135.
`ATTAGCCC` has an E-score of 0.012.
`GACCTCTA` has an E-score of -0.177.
`AACGTTGG` gave an E-score of -0.0216.
For `ATCCAGCC`, the E-score was -0.227.

Set 2
Target: Phosphate system positive regulatory protein PHO4, full length, GST-tagged (PHO4, Saccharomyces cerevisiae, UniProt P07270, residues 1-312)
Method: competition protein-binding microarray
Molecule type: double-stranded DNA, one strand shown
Matrix: in vitro
Tested at: 2 µM
Notes: whole 60-bp probe, lowest competitor level
With: Cbf1 competitor, 0.05 µM
Direction: higher = stronger binding
Construct (chain): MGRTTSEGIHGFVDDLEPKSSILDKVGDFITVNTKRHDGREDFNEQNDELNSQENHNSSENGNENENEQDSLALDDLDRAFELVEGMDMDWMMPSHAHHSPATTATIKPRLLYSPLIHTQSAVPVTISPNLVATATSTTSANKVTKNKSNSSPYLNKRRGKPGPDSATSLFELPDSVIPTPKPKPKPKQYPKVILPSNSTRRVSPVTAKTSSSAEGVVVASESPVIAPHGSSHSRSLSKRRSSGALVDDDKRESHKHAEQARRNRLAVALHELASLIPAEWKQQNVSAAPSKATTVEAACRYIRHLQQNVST
`GTCTTGTCTCATTGCCCGGTGGGTGTCCCCACTTCAGTCTTGATTCGCTTGACGCTGCTG` gave a fluorescence intensity of 5180 a.u.
With `GCTATTGGCGCATTCAATGTGTCGCAAATGGGCCCAGTCTTGATTCGCTTGACGCTGCTG` the fluorescence intensity was 4170 a.u.
`TTACAAGTTATGCCTCACGTTACCTGGATCCTGCATGTCTTGATTCGCTTGACGCTGCTG` gave a fluorescence intensity of 7020 a.u.
For `CTTCTGTAAATTTGCTTTGTGGGTGGACGCGCCCCGGTCTTGATTCGCTTGACGCTGCTG`, the fluorescence intensity was 3820 a.u.

Set 3
Target: Max-binding protein MNT, bHLH-zipper, MAX partner unstated (MNT, Homo sapiens, UniProt Q99583, residues 220-300)
Method: protein-binding microarray
Molecule type: double-stranded DNA, one strand shown
Matrix: in vitro
Tested at: not given
Notes: k-mer, scored over probes, only values ≥0.25
Direction: higher = stronger binding
Residues (chain): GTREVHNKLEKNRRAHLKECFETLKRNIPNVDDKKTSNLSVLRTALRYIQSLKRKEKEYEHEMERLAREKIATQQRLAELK
For `CGTGCTGA`, the E-score was 0.38.
The E-score of `ACGCGGTG` is reported as 0.34.
The E-score of `ACCCACAT` is reported as 0.315.
`ACCCGCGC` gave an E-score of 0.26.
For `GGCATGCC`, the E-score was 0.381.
`ACGTGTGG` gave an E-score of 0.431.
With `ATGCCGCA` the E-score was 0.268.

Other studies, line by line
`PhoQ, residues 284 288 289 292 302 303 AGGCYF` gave a fold induction of 7.78 (PhoP, residues 12 14 15 18 19 STWGI (Escherichia coli, UniProt P23836); Sort-seq, item: YFP reporter; E. coli; PhoQ-PhoP variant library, with: 10 µM Mg2+; reference: high Mg2+ state, higher = stronger signaling).

Repeated from above (set 2):
With `GCTATTGGCGCATTCAATGTGTCGCAAATGGGCCCAGTCTTGATTCGCTTGACGCTGCTG` the fluorescence intensity was 4170 a.u.
